# Measured values pooled from the literature.
# Chains of the proteins cited; added tags and fusions are not shown. Lines headed by an entry give the natural chain unless they say otherwise; changes in a name come on top. Residues count along the entry.
# UniProt P05067, whole entry, looked up: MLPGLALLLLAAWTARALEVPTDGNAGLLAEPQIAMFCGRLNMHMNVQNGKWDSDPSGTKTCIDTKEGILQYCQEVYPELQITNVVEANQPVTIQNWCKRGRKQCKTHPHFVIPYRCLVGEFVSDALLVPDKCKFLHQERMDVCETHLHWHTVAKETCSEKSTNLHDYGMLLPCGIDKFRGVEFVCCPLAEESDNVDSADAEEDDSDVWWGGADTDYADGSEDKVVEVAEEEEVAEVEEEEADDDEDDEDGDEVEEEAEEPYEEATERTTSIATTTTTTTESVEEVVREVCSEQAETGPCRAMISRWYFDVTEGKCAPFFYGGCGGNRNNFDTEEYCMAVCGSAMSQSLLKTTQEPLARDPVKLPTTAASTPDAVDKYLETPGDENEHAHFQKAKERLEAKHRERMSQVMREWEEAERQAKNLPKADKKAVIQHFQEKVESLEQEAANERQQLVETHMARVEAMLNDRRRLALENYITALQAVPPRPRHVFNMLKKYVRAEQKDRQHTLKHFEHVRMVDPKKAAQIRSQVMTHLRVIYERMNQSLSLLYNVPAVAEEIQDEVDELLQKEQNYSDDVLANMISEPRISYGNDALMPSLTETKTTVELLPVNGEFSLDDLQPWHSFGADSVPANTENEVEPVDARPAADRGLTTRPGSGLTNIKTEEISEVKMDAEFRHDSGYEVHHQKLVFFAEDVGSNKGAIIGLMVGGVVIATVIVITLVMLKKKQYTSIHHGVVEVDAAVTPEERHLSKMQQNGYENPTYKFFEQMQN
# UniProt Q6PE15, 44-297 limits assumed: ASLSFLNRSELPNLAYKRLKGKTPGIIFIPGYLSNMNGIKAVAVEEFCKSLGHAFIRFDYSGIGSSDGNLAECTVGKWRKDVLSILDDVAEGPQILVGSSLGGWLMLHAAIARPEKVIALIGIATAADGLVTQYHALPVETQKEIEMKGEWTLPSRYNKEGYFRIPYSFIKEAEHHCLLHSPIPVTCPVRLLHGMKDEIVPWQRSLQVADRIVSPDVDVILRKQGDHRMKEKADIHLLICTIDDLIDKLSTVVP
# UniProt P07384, whole entry: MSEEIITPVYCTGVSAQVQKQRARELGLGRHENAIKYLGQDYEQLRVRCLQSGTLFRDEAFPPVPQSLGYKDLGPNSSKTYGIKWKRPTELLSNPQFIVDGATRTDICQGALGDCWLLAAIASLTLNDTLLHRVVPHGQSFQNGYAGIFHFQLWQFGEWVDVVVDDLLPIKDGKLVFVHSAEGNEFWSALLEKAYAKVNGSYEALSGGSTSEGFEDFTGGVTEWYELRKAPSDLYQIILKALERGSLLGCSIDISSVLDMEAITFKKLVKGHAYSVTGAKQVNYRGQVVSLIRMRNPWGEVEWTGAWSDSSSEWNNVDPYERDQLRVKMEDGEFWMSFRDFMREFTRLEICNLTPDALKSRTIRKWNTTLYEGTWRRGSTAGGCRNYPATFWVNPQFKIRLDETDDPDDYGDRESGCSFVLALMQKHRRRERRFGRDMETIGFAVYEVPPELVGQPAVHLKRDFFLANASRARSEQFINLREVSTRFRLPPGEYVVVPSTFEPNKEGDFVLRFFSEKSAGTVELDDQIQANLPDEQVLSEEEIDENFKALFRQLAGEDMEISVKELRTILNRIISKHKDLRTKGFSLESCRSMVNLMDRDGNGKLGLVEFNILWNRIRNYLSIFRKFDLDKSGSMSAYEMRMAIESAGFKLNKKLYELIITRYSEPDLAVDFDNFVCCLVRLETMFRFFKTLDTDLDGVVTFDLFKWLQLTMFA
# UniProt P11802, whole entry: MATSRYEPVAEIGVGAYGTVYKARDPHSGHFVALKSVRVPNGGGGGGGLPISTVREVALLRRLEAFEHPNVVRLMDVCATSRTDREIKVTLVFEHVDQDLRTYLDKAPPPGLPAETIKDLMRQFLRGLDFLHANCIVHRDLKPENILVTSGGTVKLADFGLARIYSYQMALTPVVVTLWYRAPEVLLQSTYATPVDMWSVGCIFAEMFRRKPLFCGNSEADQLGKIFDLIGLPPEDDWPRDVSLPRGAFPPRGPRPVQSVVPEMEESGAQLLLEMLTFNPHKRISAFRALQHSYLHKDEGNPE
# UniProt P46934, whole entry, looked up: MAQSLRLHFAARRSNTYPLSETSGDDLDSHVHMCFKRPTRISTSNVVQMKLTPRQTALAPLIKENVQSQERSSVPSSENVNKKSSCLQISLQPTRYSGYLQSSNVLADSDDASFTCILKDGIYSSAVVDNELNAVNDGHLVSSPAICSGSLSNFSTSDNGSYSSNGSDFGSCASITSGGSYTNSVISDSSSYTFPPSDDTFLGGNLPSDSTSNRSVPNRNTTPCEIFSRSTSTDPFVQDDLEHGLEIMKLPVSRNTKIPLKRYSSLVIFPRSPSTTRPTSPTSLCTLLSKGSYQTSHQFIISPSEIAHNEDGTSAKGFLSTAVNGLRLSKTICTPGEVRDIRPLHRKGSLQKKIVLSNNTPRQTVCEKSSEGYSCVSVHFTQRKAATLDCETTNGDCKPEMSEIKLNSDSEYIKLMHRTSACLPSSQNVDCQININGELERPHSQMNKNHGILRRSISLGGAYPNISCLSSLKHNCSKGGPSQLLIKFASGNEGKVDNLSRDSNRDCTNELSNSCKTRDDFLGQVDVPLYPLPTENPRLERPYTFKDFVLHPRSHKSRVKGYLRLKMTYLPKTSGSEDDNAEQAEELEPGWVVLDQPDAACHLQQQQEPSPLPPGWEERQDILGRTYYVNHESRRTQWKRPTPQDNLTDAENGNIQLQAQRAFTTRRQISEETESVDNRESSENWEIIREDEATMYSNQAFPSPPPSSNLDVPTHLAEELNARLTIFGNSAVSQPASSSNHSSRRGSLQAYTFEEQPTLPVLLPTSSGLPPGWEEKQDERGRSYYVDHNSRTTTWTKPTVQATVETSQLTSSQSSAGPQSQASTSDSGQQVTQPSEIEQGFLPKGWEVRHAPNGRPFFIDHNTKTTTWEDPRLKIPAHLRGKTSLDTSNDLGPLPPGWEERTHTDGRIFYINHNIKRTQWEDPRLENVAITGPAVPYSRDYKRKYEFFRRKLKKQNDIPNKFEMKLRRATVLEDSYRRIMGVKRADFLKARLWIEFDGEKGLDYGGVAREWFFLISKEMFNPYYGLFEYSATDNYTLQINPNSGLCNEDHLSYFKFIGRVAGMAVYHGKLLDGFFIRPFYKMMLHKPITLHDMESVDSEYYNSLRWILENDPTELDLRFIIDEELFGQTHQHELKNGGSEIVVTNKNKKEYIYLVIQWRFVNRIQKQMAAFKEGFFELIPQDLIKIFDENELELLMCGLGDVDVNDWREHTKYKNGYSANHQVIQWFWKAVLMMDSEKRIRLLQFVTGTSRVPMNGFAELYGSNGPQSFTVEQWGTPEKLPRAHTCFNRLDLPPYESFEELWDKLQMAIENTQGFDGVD
# UniProt P43235, 115-329 limits assumed: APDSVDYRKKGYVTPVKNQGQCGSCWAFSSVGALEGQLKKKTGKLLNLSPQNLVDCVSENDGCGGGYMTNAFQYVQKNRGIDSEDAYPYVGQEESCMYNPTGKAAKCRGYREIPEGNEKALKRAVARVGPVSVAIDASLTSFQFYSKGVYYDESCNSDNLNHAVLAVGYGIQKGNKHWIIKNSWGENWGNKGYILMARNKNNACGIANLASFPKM
# UniProt Q8N6T7, whole entry: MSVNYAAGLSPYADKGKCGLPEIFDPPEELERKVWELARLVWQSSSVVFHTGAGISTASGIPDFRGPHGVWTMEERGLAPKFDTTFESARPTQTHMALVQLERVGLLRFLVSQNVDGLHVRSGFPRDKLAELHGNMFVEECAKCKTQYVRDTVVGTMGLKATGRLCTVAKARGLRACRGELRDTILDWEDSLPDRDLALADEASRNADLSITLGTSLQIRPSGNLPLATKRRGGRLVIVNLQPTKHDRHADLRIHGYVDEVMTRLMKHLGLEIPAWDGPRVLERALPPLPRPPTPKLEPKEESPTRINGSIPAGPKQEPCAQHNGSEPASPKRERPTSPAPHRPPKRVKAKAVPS
# UniProt Q9P2P5, 1237-1572 limits assumed: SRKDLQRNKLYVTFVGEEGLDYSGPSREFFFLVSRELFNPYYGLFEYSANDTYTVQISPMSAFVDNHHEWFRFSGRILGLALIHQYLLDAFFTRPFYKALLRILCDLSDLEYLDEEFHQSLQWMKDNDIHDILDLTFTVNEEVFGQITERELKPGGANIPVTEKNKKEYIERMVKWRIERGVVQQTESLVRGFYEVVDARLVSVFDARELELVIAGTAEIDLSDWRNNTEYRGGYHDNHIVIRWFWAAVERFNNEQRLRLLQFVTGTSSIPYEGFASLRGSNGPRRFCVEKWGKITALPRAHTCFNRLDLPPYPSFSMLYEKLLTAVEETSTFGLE
# UniProt P24385, whole entry partner: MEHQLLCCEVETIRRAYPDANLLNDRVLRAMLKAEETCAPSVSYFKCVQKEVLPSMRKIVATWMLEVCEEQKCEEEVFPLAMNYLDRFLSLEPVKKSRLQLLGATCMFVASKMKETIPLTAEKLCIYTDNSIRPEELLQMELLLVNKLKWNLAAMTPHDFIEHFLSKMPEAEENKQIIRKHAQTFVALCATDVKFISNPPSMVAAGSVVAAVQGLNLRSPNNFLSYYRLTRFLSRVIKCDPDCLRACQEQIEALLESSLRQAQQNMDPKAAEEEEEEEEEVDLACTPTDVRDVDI
# UniProt P04632, whole entry partner: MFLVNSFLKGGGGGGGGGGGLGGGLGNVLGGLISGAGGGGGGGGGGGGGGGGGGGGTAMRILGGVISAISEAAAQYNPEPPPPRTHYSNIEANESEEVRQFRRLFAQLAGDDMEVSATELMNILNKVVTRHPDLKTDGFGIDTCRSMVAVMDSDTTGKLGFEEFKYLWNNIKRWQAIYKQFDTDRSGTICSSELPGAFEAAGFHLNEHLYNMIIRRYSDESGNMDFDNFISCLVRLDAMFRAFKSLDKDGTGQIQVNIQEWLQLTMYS
# Compare with care: the assays were run in different laboratories. ± gives the spread as reported.
# APP Aβ1-40: Amyloid-beta precursor protein, Aβ1-40 (APP, Homo sapiens, UniProt P05067)
Compound,tested on,test,system,conditions,endpoint,value
COc1ccc2[nH]cc(/C=C/c3ccc(NC(C)=O)cc3)c2c1,APP Aβ1-40,"Aβ40 aggregation, thioflavin T fluorescence",,25 µM,inhibition,55%
CC[C@@]1(c2cccc(C)c2)C(=O)N(C(=O)OC)N1C(=O)OC,"Palmitoyl-protein thioesterase ABHD10, mitochondrial (Mus musculus, UniProt Q6PE15)","inhibitor, competitive ABPP gel",COS-7 proteome overexpressing ABHD10,concentration not given,inhibition,inhibited
CCNC(=O)C(=O)[C@H](Cc1ccccc1)NC(=O)[C@H]1CCC(=O)N1Cc1ccccc1,"CAPN1 (Homo sapiens, UniProt P07384)","enzyme activity, inhibitor",,1 µM,inhibition,84.2%
COC(=O)[C@@H]1C(c2nc3cc(C(F)(F)F)ccc3s2)=Cc2cc3c(cc2[C@H]1c1cc(OC)c(OC)c(OC)c1)OCO3,Leishmania infantum,,"promastigote, iRFP",,EC50,> 100 µM
O=C(Nc1cccc(F)c1)c1cc(S(=O)(=O)N2CCOCC2)c(Cl)cc1Cl,"Autotaxin (ENPP2, Homo sapiens, UniProt Q13822)",enzyme activity,,"10 µM, 4 h, with: 1 µM FS-3",inhibition,89 ± 0.3%
Cc1cc(SCc2sc(-c3ccc(F)c(F)c3F)nc2C)ccc1OCC(=O)O,HEK293T,,,18 h,CC50,> 80 µM
CN(C)C(=O)Cn1cc(-c2ccc(-c3cncc4ccncc34)cc2)cn1,"CDK4 (Homo sapiens, UniProt P11802)","enzyme activity, SelectScreen",,concentration not given,inhibition,no inhibition
N#Cc1ccc2[nH]cc(/C=C/c3ccccc3)c2c1,APP Aβ1-40,"Aβ40 aggregation, thioflavin T fluorescence",,25 µM,inhibition,0%
COC(=O)/C=C/CNC(=O)c1c(C)n(C2CCCC2)c2ccc(OC)cc12,"E3 ubiquitin-protein ligase NEDD4 (Homo sapiens, UniProt P46934)","ubiquitination, inhibitor, Ub-TR-FRET",,"11 µM, HECT domain",inhibition,37 ± 16%
CCCCNCC1=Cc2cc3c(cc2[C@@H](c2cc(OC)c(OC)c(OC)c2)[C@@H]1C(=O)OC)OCO3,Leishmania infantum,,"promastigote, iRFP",,EC50,38.3 ± 3.7 µM
O=C(NC1CC1)C(=O)[C@H](Cc1ccccc1)NC(=O)[C@H]1CCC(=O)N1Cc1ccccc1,"Cathepsin K (CTSK, Homo sapiens, UniProt P43235)","enzyme activity, inhibitor",,1 µM,inhibition,4.1%
COc1ccc2[nH]cc(/C=C/c3ccc(OS(C)(=O)=O)cc3)c2c1,APP Aβ1-40,"Aβ40 aggregation, thioflavin T fluorescence",,25 µM,inhibition,36%
O=C(NOCc1ccccc1)c1cccc([N+](=O)[O-])c1,"SIRT6 (Homo sapiens, UniProt Q8N6T7)","deacetylase activity, fluorogenic",,"100 µM, with: RHKK-ac-AMC",inhibition,16.8 ± 2.98%
Cc1nc(-c2cccc(CO)c2)sc1COc1ccc(CCC(=O)O)cc1,HEK293T,,,18 h,CC50,not toxic
CCOC(=O)/C=C/CNCCCCN1c2ccccc2CCc2ccc(Cl)cc21,"E3 ubiquitin-protein ligase HECW2 (HECW2, Homo sapiens, UniProt Q9P2P5)","ubiquitination, Ub-TR-FRET",,"concentration not given, up to high concentrations",inhibition,no inhibition
COC(=O)/C(=C/c1c[nH]c2ccc(F)cc12)c1ccc(F)cc1,APP Aβ1-40,"Aβ40 aggregation, thioflavin T fluorescence",,25 µM,inhibition,0%

# A few entries again:
Compound,tested on,test,system,conditions,endpoint,value
Cc1cc(SCc2sc(-c3ccc(F)c(F)c3F)nc2C)ccc1OCC(=O)O,HEK293T,,,18 h,CC50,> 80 µM
